Experimental data of several laboratories.
Every numbered part comes from another study and shows a few of its results, in no order. Positions count from the first letter of the parent shown.

Study 1
Target: CCNE1, cyclin fold, Cln2 fusion (human)
Method: yeast growth competition, sequencing
Medium: yeast
Setting: strong parent motif
Reference: not given
Direction: higher = stronger binding
Parent: CDKN1B docking peptide (human); PSACRNLFGPVDH; partner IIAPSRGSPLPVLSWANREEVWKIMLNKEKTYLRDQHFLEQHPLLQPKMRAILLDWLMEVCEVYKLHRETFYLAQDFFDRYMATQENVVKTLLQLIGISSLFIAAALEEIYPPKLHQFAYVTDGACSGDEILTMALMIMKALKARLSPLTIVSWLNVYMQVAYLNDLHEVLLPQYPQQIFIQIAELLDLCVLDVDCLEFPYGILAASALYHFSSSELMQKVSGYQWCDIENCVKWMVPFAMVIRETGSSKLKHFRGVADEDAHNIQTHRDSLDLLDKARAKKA
For `PSACRNLFGPVEH [D12E]`, “normalised enrichment score” read 2.75.
For `PSACLNLFGPVDH [R5L]`, “normalised enrichment score” read 0.636.
For `PSACRNLFGPDDH [V11D]`, “normalised enrichment score” read 2.55.
For `CSACRNLFGPVDH [P1C]`, “normalised enrichment score” read 2.93.
Under “normalised enrichment score”, `PSACMNLFGPVDH [R5M]` is recorded as 0.429.
`PSACRTLFGPVDH [N6T]` — result for “normalised enrichment score”: 1.74.
`PSACSNLFGPVDH [R5S]`: “normalised enrichment score” 0.759.
Under “normalised enrichment score”, `PSACRNLFGHVDH [P10H]` is recorded as 2.21.
`PSICRNLFGPVDH [A3I]` — result for “normalised enrichment score”: 2.13.
For `PSACRNLFRPVDH [G9R]`, “normalised enrichment score” read 0.233.
For `KSACRNLFGPVDH [P1K]`, “normalised enrichment score” read 4.06.
`PSAERNLFGPVDH [C4E]`: “normalised enrichment score” 0.445.
For `PSACRALFGPVDH [N6A]`, “normalised enrichment score” read 2.14.
`PSACRNLFGPVDE [H13E]`: “normalised enrichment score” 2.82.
`PSACRNLFGPVQH [D12Q]`: “normalised enrichment score” 3.13.
Under “normalised enrichment score”, `PSACINLFGPVDH [R5I]` is recorded as 0.316.
`PSACRNLFGPVGH [D12G]` — result for “normalised enrichment score”: 2.59.
`PSACRNLFHPVDH [G9H]`: “normalised enrichment score” 1.1.
Under “normalised enrichment score”, `PSACRNLFGPHDH [V11H]` is recorded as 3.6.
`PSACRNLFGPVDG [H13G]` — result for “normalised enrichment score”: 2.84.
For `PSACKNLFGPVDH [R5K]`, “normalised enrichment score” read 0.983.
Under “normalised enrichment score”, `PSACRNTFGPVDH [L7T]` is recorded as -0.0498.
`PSAYRNLFGPVDH [C4Y]` — result for “normalised enrichment score”: 0.312.
`PSACRNLFEPVDH [G9E]`: “normalised enrichment score” 1.09.
`PSACRNLFWPVDH [G9W]` — result for “normalised enrichment score”: 0.992.

Study 2
Target: Interferon regulatory factor 5, full length, phosphomimetic (IRF5, Homo sapiens, UniProt Q13568-2, residues 1-514, K96S/S451D/S453D/S456D/S462D)
Method: protein-binding microarray
Molecule type: double-stranded DNA, one strand shown
Medium: in vitro
Concentration: 250 nM
Setting: 60-bp whole probe
With: salmon DNA 0.4 mg/ml
Reference: random background probes
Direction: higher = stronger binding
All sequences stand within: GCCTAGCAC … GTCTTGATTCGCTTGACGCTGCTG
`TCATGTCTGGAGTCTCTGACTGTGCTA` gave a log fluorescence of 0.254 z-score.
`TCTGATTTCTCAAACAGCTCGTGCTAG` has a log fluorescence of 0.422 z-score.
For `TTAGGACTGGGGACTGGGCTAGTGCTA`, the log fluorescence was -0.582 z-score.
For `TCAATCCTTCATTTGAAACTGTGCTAG`, the log fluorescence was 0.441 z-score.
With `TTAGATATCAGTTTAGATTAGTGCTAG` the log fluorescence was 2.06 z-score.
With `AGAGCTGTCCTTTGCAACAGGTGCTAG` the log fluorescence was -0.536 z-score.
`TTAGGTCTCGGTCTTGGTTAGTGCTAG` gave a log fluorescence of 0.529 z-score.
`CTTTCTTTAACATATTCTCTTGTGCTA` gave a log fluorescence of 1.99 z-score.
`ATTGCTTCCTCTTTCACTGGGTGCTAG` has a log fluorescence of 2.43 z-score.
`GACAGTTTCGGTTCCGGGACGTGCTAG` gave a log fluorescence of 10.8 z-score.
With `TTAGAACTGGGGTGTCGATTAGTGCTA` the log fluorescence was -0.204 z-score.
With `CTTGCTCTGTGCATAGGTCTGTGCTAG` the log fluorescence was -0.586 z-score.
With `TCATTTTTAGATTTTTTACTGTGCTAG` the log fluorescence was 1.04 z-score.
`TTAGGTCTCGGTTTCGGTTGGTGCTAG` has a log fluorescence of 8.24 z-score.
The log fluorescence of `TGGGACCAGCACAGACAGTCGTGCTAG` is reported as -0.565 z-score.
For `TTTGGTATCCTTATCCTTTAGTGCTAG`, the log fluorescence was 0.414 z-score.
`TAAGGACTGGACACTGGGTTAGTGCTA` has a log fluorescence of -0.256 z-score.
`TTAGGTTTCGACACTGGATTAGTGCTA` gave a log fluorescence of 5.94 z-score.
The log fluorescence of `GACGGTTTCCTTTTTCTGACGTGCTAG` is reported as 1.3 z-score.

Study 3
Target: Sal-like protein 4, full length isoform A (SALL4, Homo sapiens, UniProt Q9UJQ4, residues 1-1053)
Chain of UniProt Q9UJQ4 (whole entry, looked up): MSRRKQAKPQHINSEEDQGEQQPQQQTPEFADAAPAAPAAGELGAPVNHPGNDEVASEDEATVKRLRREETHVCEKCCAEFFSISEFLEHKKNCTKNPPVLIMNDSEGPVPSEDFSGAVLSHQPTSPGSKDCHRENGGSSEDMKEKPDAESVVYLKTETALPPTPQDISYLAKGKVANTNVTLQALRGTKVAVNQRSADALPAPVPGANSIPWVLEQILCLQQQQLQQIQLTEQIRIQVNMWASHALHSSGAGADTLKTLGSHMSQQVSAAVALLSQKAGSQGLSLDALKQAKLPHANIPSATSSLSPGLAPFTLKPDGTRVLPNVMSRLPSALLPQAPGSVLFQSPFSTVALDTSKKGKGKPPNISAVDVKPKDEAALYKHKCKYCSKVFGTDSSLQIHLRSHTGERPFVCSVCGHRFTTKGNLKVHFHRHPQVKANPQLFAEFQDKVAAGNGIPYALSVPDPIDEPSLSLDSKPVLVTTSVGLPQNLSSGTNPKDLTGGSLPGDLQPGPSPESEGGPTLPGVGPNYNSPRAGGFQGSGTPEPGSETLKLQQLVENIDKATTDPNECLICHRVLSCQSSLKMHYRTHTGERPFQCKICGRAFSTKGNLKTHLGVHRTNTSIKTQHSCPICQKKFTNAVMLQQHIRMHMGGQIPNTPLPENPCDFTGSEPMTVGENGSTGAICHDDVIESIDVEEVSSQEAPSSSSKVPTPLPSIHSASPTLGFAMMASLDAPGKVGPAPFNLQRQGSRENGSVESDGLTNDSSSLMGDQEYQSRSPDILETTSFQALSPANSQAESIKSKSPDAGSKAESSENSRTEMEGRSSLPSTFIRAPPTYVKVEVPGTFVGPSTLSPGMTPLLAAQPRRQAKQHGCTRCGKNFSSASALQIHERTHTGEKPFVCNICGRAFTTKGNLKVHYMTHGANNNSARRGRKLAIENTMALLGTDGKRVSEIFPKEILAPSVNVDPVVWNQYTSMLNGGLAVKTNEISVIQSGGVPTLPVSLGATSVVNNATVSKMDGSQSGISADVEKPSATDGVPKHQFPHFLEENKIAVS
Method: universal PBM
Molecule type: double-stranded DNA, one strand shown
Medium: in vitro
Concentration: 600 nM
Setting: 8-mer, flanks averaged, mean of replicates
Direction: higher = stronger binding
With `GAACACCA` the E-score was -0.0903.
`CCCCTACC` gave an E-score of -0.233.
The E-score of `ACCTCTCC` is reported as -0.0367.
For `GCAATTGC`, the E-score was 0.261.
With `CACTCAAA` the E-score was 0.139.
`CGGTACTA` has an E-score of -0.14.
With `CACCCCGA` the E-score was -0.121.
With `GTGTTGTA` the E-score was 0.129.
`AACCACGA` has an E-score of -0.00549.
With `CTTACCCA` the E-score was 0.139.
With `GCCACGCA` the E-score was -0.262.
The E-score of `AAGCAAAG` is reported as 0.0717.
`GGAAACTA` gave an E-score of -0.131.
The E-score of `GGACCTTA` is reported as -0.115.
`GATGTCGA` gave an E-score of -0.0197.
With `AACGAACA` the E-score was 0.242.
The E-score of `ACACCACA` is reported as -0.0966.

Study 4
Target: CREB3L3, bZIP domain (human)
Method: DHFR protein complementation
Medium: yeast
Setting: single substitutions, most at no-binding floor
Reference: wild-type JUN-FOS pair
Direction: higher = stronger binding
Parent: JUN, bZIP domain (human); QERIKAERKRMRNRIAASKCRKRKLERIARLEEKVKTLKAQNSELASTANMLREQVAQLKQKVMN; partner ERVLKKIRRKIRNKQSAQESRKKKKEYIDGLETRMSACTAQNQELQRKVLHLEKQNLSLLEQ
With `K36D` the binding fitness was -1.56 natural log.
The binding fitness of `A57D` is reported as -1.34 natural log.
`L59G` gave a binding fitness of -1.44 natural log.
The binding fitness of `R53I` is reported as -1.49 natural log.
For `R30V`, the binding fitness was -1.56 natural log.
With `S43M` the binding fitness was -1.45 natural log.
The binding fitness of `K34T` is reported as -1.51 natural log.
For `N42K`, the binding fitness was -1.41 natural log.
For `A57C`, the binding fitness was -1.27 natural log.
For `Q41D`, the binding fitness was -1.47 natural log.
The binding fitness of `Q55L` is reported as -1.5 natural log.
For `L52E`, the binding fitness was -1.36 natural log.
`E32V` has a binding fitness of -1.38 natural log.
The binding fitness of `L52W` is reported as -1.43 natural log.
For `L45S`, the binding fitness was -1.42 natural log.
`N42W` has a binding fitness of -1.4 natural log.
`R30A` has a binding fitness of -1.41 natural log.
`Q55G` has a binding fitness of -1.43 natural log.
The binding fitness of `L31K` is reported as -1.46 natural log.
`R30F` has a binding fitness of -1.45 natural log.
The binding fitness of `R53L` is reported as -1.49 natural log.
The binding fitness of `S43K` is reported as -1.13 natural log.
With `Q41R` the binding fitness was -1.54 natural log.
The binding fitness of `Q55Y` is reported as -1.45 natural log.

Study 5
Target: ABI1, truncated, D143A, DHFR fusion (Arabidopsis thaliana)
Method: DHFR PCA, deep sequencing
Medium: yeast
Setting: methotrexate growth selection, single substitutions
With: (+)-ABA 17 µM
Reference: wild-type fitted maximum
Direction: higher = stronger binding
Parent: PYL1, truncated, DHFR fusion (Arabidopsis thaliana); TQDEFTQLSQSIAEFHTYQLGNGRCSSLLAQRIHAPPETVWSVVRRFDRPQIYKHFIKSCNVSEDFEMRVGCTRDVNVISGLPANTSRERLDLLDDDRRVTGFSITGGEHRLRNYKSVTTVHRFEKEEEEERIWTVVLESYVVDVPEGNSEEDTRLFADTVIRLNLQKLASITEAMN
Under “relative binding score”, `E139T` is recorded as 88.3%.
`C72K` — result for “relative binding score”: 44.3%.
`P37R` — result for “relative binding score”: 5.2%.
`E89G` — result for “relative binding score”: 7.14%.
Under “relative binding score”, `Y53G` is recorded as -3.26%.
For `F47E`, “relative binding score” read -4.88%.
Under “relative binding score”, `R46L` is recorded as 48.7%.
Under “relative binding score”, `Y53N` is recorded as 3.32%.
`L28S` — result for “relative binding score”: 16%.
`N85Y`: “relative binding score” 76.6%.
`V143H`: “relative binding score” 1.1%.
`D153T`: “relative binding score” 2.43%.
Under “relative binding score”, `E64R` is recorded as 81.9%.
Under “relative binding score”, `R123P` is recorded as 81.4%.
`E131P` — result for “relative binding score”: 92.2%.
`W41K`: “relative binding score” -30.4%.
For `V100D`, “relative binding score” read -4.13%.
`R88D` — result for “relative binding score”: 22.6%.
For `E128L`, “relative binding score” read 76.6%.
`T160G` — result for “relative binding score”: 39.7%.
`D159S` — result for “relative binding score”: 56.5%.

Single results of other studies
The fold induction of `PhoQ, residues 284 288 289 292 302 303 QWQEDG` is reported as 2.43 (PhoP, residues 12 14 15 18 19 NQFFI (Escherichia coli, UniProt P23836); Sort-seq, refers to: YFP reporter; E. coli; PhoQ-PhoP variant library, with: 10 µM Mg2+; reference: high Mg2+ state, higher = stronger signaling).

A few entries again (study 4):
`N42W` has a binding fitness of -1.4 natural log.
For `A57C`, the binding fitness was -1.27 natural log.
`L59G` gave a binding fitness of -1.44 natural log.
The binding fitness of `S43K` is reported as -1.13 natural log.
The binding fitness of `L52W` is reported as -1.43 natural log.
`R30F` has a binding fitness of -1.45 natural log.
With `K36D` the binding fitness was -1.56 natural log.
With `Q41R` the binding fitness was -1.54 natural log.
For `L45S`, the binding fitness was -1.42 natural log.
The binding fitness of `L31K` is reported as -1.46 natural log.
For `Q41D`, the binding fitness was -1.47 natural log.
For `L52E`, the binding fitness was -1.36 natural log.
The binding fitness of `R53I` is reported as -1.49 natural log.
`Q55G` has a binding fitness of -1.43 natural log.
`R30A` has a binding fitness of -1.41 natural log.
The binding fitness of `K34T` is reported as -1.51 natural log.
With `S43M` the binding fitness was -1.45 natural log.
For `R30V`, the binding fitness was -1.56 natural log.
